Measured values of several laboratories.
Each line is one published result; not all experiments were run side by side.
Organism: Klebsiella pneumoniae

CCCCCCCC(=O)N[C@@H](CCN)C(=O)N[C@H](C(=O)N[C@@H](CCN)C(=O)N[C@H]1CCNC(=O)[C@H]([C@@H](C)O)NC(=O)[C@H](CCN)NC(=O)[C@H](CCN)NC(=O)[C@H](CCCCCC)NC(=O)[C@@H](Cc2ccccc2)NC(=O)[C@H](CCN)NC1=O)[C@@H](C)O — MIC (broth microdilution; ATCC 13883): 8 to 16 µg/mL
CC[C@H](C)[C@H](NC(=O)[C@@H](CCCNC(=N)N)NC(=O)[C@H](CCCNC(=N)N)NC(=O)[C@H](CO)NC(=O)[C@H](Cc1c[nH]c2ccccc12)NC(=O)[C@H](CCCNC(=N)N)NC(=O)[C@@H]1CCCN1C(=O)[C@H](CCCNC(=N)N)NC(=O)[C@@H]1CCCN1C(=O)[C@H](CC(C)C)NC(=O)[C@H](Cc1ccc(O)cc1)NC(=O)[C@@H]1CCCN1C(=O)[C@@H]1CCCN1C(=O)[C@H](CCCCN)NC(=O)[C@H](CC(=O)O)NC(=O)[C@@H](N)C(C)C)C(=O)N[C@@H](Cc1ccc(O)cc1)C(=O)N[C@@H](CC(N)=O)C(=O)N[C@H](CCCNC(=N)N)C(N)=O — MIC (broth microdilution; DSM 681; 18 h, 37 °C, 25% MHB2): 2 µg/mL
CCCCCCCC(=O)N[C@@H](CCN)C(=O)N[C@H](C(=O)N[C@@H](CCN)C(=O)N[C@H]1CCNC(=O)[C@H]([C@@H](C)O)NC(=O)[C@H](CCN)NC(=O)[C@H](CCN)NC(=O)[C@H](Cc2cc(F)c(F)c(F)c2)NC(=O)[C@@H](CC(C)C)NC(=O)[C@H](CCN)NC1=O)[C@@H](C)O — MIC (broth microdilution; ATCC 13883, colistin-susceptible): 8 to 16 µg/mL
CC(C)(O/N=C(\C(=O)N[C@@H]1C(=O)N(OS(=O)(=O)O)C1(C)C)c1nsc(N)n1)C(=O)O — MIC (agar dilution; 09-20, NDM-1): 64 µg/mL
CCCCCCCC(=O)N[C@@H](CCN)C(=O)N[C@H](C(=O)N[C@@H](CCN)C(=O)N[C@H]1CCNC(=O)[C@H]([C@@H](C)O)NC(=O)[C@H](CCN)NC(=O)[C@H](CCN)NC(=O)[C@H](CC(C)C)NC(=O)[C@@H](Cc2ccc(Cl)cc2)NC(=O)[C@H](CCN)NC1=O)[C@@H](C)O — MIC (broth microdilution; ATCC 19606): < 0.125 µg/mL
COc1ccc2ccc(O)c(/C=N/[C@H]3CCCC[C@H]3/N=C/c3cc(C(C)(C)C)ccc3O)c2c1 — MIC (bacterial growth, broth microdilution; carbapenem-resistant): > 40 µM
C=C1NC(=O)C2CSCC3NC(=O)C(CSC(C)C(NC(=S)C(Cc4cnc[nH]4)NC(=O)c4csc(C(C)NC(C)=O)n4)C(=O)N[C@H](CC(C)C(=O)NC(=O)CC(C(=O)O)NC(=O)C(C)NC3=O)C(=O)N2)NC(=O)[C@@H]2CCCN2C(=O)[C@@H](CC(C)C)NC1=O (some centres unmarked) — MIC (bacterial growth; ATCC 12657): > 32 µg/mL
COc1ccc2ccc(O)c(/C=N/[C@H]3CCCC[C@H]3/N=C/c3c(C)cccc3O)c2c1 — MIC (bacterial growth, broth microdilution; carbapenem-resistant clinical isolate): > 40 µM
CC1(C)[C@H](NC(=O)/C(=N\OCc2c(Cl)cccc2Cl)c2csc(N)n2)C(=O)N1OS(=O)(=O)O — MIC (agar dilution; 2146, NDM-1): 64 µg/mL
CC[C@H](C)[C@H](NC(=O)[C@@H](CCCNC(=N)N)NC(=O)[C@H](CCCNC(=N)N)NC(=O)[C@@H]1CCCN1C(=O)[C@@H]1CCCN1C(=O)[C@H](Cc1c[nH]cn1)NC(=O)[C@@H]1CCCN1C(=O)[C@H](CCCNC(=N)N)NC(=O)[C@@H]1CCCN1C(=O)[C@H](CC(C)C)NC(=O)[C@H](Cc1ccc(O)cc1)NC(=O)[C@@H]1CCCN1C(=O)[C@@H]1CCCN1C(=O)[C@H](CCCCN)NC(=O)[C@H](CC(=O)O)NC(=O)[C@@H](N)C(C)C)C(=O)N[C@@H](Cc1ccc(O)cc1)C(=O)N[C@@H](CC(N)=O)C(=O)N[C@H](CCCNC(=N)N)C(N)=O — MIC (broth microdilution; DSM 681; 18 h, 37 °C, 25% MHB2): 8 µg/mL
CC1(C)C(NC(=O)C(=NOCC(=O)N2CC3CCCC3C2C(=O)O)c2csc(N)n2)C(=O)N1OS(=O)(=O)O (centres unmarked) — MIC (agar dilution; 09-20, NDM-1): 4 µg/mL
CN[C@@H]1[C@H](O)[C@H](NC)[C@H]2O[C@]3(O)[C@H](O[C@@H]2[C@H]1O)O[C@H](C)C[C@H]3NC(=O)Cc1cscn1 — MIC (microbial growth, broth dilution; ATCC33495): 100 µg/mL
N=C(N)NCCC[C@@H]1NC(=O)[C@H](CCCNC(=N)N)NC(=O)[C@@H](C(c2ccccc2)c2ccccc2)NC(=O)[C@H](Cc2c[nH]c3ccccc23)NC(=O)[C@@H](C(c2ccccc2)c2ccccc2)NC(=O)[C@@H](CCCNC(=N)N)NC(=O)[C@@H](CCCNC(=N)N)NC1=O — MIC (1188718, multidrug-resistant): > 64 µg/mL
CC[C@H](C)[C@H](NC(=O)[C@H](Cc1c[nH]c2ccccc12)NC(=O)[C@H](Cc1ccc(O)cc1)NC(=O)[C@H](CCCCN)NC(=O)[C@H](CC(C)C)NC(=O)[C@@H](N)CO)C(=O)N[C@@H](CCCNC(=N)N)C(=O)N[C@@H](Cc1ccc(O)cc1)C(=O)N[C@@H](CCCCN)C(=O)N[C@@H](CCCNC(=N)N)C(=O)N[C@@H](CCC(N)=O)C(=O)NCC(=O)N[C@@H](C)C(=O)N[C@@H](C)C(=O)N[C@@H](CCCNC(=N)N)C(=O)N[C@@H](Cc1ccccc1)C(N)=O — MIC (broth dilution; ATCC 700603): 12.5 µM
N=C(N)NCCC[C@@H]1NC(=O)[C@H](CCCNC(=N)N)NC(=O)[C@@H](CCCNC(=N)N)NC(=O)[C@H](C(c2ccccc2)c2ccccc2)NC(=O)[C@H](C(c2ccccc2)c2ccccc2)NC(=O)[C@H](C(c2ccccc2)c2ccccc2)NC(=O)[C@H](CCCNC(=N)N)NC1=O — MIC (ATCC BAA1705, KPC-2 carbapenem-resistant): > 64 µg/mL
C#CCNC(=O)[C@H]1NC(=O)[C@H]2NC(=O)[C@H](NC(=O)[C@@H]3NC(=O)[C@H](CC(N)=O)NC(=O)[C@H](NC(=O)[C@@H](CC(C)C)NC)[C@H](O)c4ccc(c(Cl)c4)Oc4cc3cc(c4O[C@@H]3O[C@H](CO)[C@@H](O)[C@H](O)[C@H]3O[C@H]3C[C@](C)(N)[C@H](O)[C@H](C)O3)Oc3ccc(cc3Cl)[C@H]2O)c2ccc(O)c(c2)-c2c(O)cc(O)cc21 — MIC (broth microdilution; ATCC 13883, cation-adjusted Mueller-Hinton broth; 18 to 20 h, 37 °C, 0.002% polysorbate 80): > 128 µg/mL
CCn1c(-c2ccc(F)cc2)c(-c2ccc(F)cc2)n(CC)c1=[Se] — MIC (broth microdilution; carbapenem-resistant BAA-1705; 24 h): > 40 µM
CC[C@H](C)[C@H](NC(=O)[C@@H](CCCNC(=N)N)NC(=O)[C@H](CCCNC(=N)N)NC(=O)[C@H](Cc1c[nH]c2ccccc12)NC(=O)[C@H](Cc1c[nH]c2ccccc12)NC(=O)[C@H](CCCNC(=N)N)NC(=O)[C@@H]1CCCN1C(=O)[C@H](CCCNC(=N)N)NC(=O)[C@@H]1CCCN1C(=O)[C@H](CC(C)C)NC(=O)[C@H](Cc1ccc(O)cc1)NC(=O)[C@@H]1CCCN1C(=O)[C@@H]1CCCN1C(=O)[C@H](CCCCN)NC(=O)[C@H](CC(=O)O)NC(=O)[C@@H](N)C(C)C)C(=O)N[C@@H](Cc1ccc(O)cc1)C(=O)N[C@@H](CC(N)=O)C(=O)N[C@H](CCCNC(=N)N)C(N)=O — MIC (broth microdilution; DSM 681; 18 h, 37 °C, 25% MHB2): 4 µg/mL
CC1(C)[C@H](NC(=O)/C(=N\OCC(=O)N2CCC(C(=O)O)CC2)c2csc(N)n2)C(=O)N1OS(=O)(=O)O — MIC (agar dilution; 09-20, NDM-1): 8 µg/mL
CC[C@H](C)[C@H](NC(=O)[C@@H](CCCNC(=N)N)NC(=O)[C@H](CCCNC(=N)N)NC(=O)[C@H](CCC(=O)O)NC(=O)[C@H](Cc1c[nH]c2ccccc12)NC(=O)[C@H](CCCNC(=N)N)NC(=O)[C@@H]1CCCN1C(=O)[C@H](CCCNC(=N)N)NC(=O)[C@@H]1CCCN1C(=O)[C@H](CC(C)C)NC(=O)[C@H](Cc1ccc(O)cc1)NC(=O)[C@@H]1CCCN1C(=O)[C@@H]1CCCN1C(=O)[C@H](CCCCN)NC(=O)[C@H](CC(=O)O)NC(=O)[C@@H](N)C(C)C)C(=O)N[C@@H](Cc1ccc(O)cc1)C(=O)N[C@@H](CC(N)=O)C(=O)N[C@H](CCCNC(=N)N)C(N)=O — MIC (broth microdilution; DSM 681; 18 h, 37 °C, 25% MHB2): 8 µg/mL
COc1ccc2ccc(O)c(/C=N/[C@H]3CCCC[C@H]3/N=C/c3cccc(OC)c3O)c2c1 — MIC (bacterial growth, broth microdilution; carbapenem-resistant): > 40 µM
CC[C@H](C)[C@H](NC(=O)[C@@H](CCCNC(=N)N)NC(=O)[C@H](CCCNC(=N)N)NC(=O)[C@@H]1CCCN1C(=O)[C@@H]1CCCN1C(=O)[C@H](CCCCNC(=N)N)NC(=O)[C@@H]1CCCN1C(=O)[C@H](CCCNC(=N)N)NC(=O)[C@@H]1CCCN1C(=O)[C@H](CC(C)C)NC(=O)[C@H](Cc1ccc(O)cc1)NC(=O)[C@@H]1CCCN1C(=O)[C@@H]1CCCN1C(=O)[C@H](CCCCN)NC(=O)[C@H](CC(=O)O)NC(=O)[C@@H](N)C(C)C)C(=O)N[C@@H](Cc1ccc(O)cc1)C(=O)N[C@@H](CC(N)=O)C(=O)N[C@H](CCCNC(=N)N)C(N)=O — MIC (broth microdilution; DSM 681; 18 h, 37 °C, 25% MHB2): 4 µg/mL
CC[C@H](C)[C@H](NC(=O)[C@H](Cc1c[nH]c2ccccc12)NC(=O)[C@H](CCCCN)NC(=O)[C@H](CC(C)C)NC(=O)[C@@H](NC(=O)[C@@H](NC(=O)CNC(=O)[C@H](CCCCN)NC(=O)[C@H](Cc1c[nH]cn1)NC(=O)[C@H](CCCCN)NC(=O)[C@H](Cc1c[nH]c2ccccc12)NC(=O)[C@H](C)NC(=O)[C@H](CC(C)C)NC(=O)[C@H](CO)NC(=O)[C@@H](NC(=O)[C@H](Cc1ccc(O)cc1)NC(=O)[C@H](CCCCN)NC(=O)[C@H](CCC(N)=O)NC(=O)CNC(=O)[C@H](CCCCN)NC(=O)[C@@H](NC(=O)[C@H](C)NC(=O)[C@H](CC(C)C)NC(=O)[C@H](Cc1ccccc1)NC(=O)[C@H](CCC(N)=O)NC(=O)[C@@H](NC(=O)[C@H](CC(C)C)NC(=O)[C@H](CCCCN)NC(=O)[C@H](CCSC)NC(=O)[C@H](Cc1ccccc1)NC(=O)[C@H](C)NC(=O)[C@H](C)NC(=O)[C@@H](N)CCSC)[C@@H](C)CC)[C@@H](C)O)C(C)C)[C@@H](C)O)[C@@H](C)CC)C(=O)N[C@@H](CC(N)=O)C(N)=O — MIC (broth microdilution; NCTC 5055; 24 h, 37 °C): 20 µg/mL

Excerpt of the above:
CC(C)(O/N=C(\C(=O)N[C@@H]1C(=O)N(OS(=O)(=O)O)C1(C)C)c1nsc(N)n1)C(=O)O — MIC (agar dilution; 09-20, NDM-1): 64 µg/mL
COc1ccc2ccc(O)c(/C=N/[C@H]3CCCC[C@H]3/N=C/c3c(C)cccc3O)c2c1 — MIC (bacterial growth, broth microdilution; carbapenem-resistant clinical isolate): > 40 µM
N=C(N)NCCC[C@@H]1NC(=O)[C@H](CCCNC(=N)N)NC(=O)[C@@H](C(c2ccccc2)c2ccccc2)NC(=O)[C@H](Cc2c[nH]c3ccccc23)NC(=O)[C@@H](C(c2ccccc2)c2ccccc2)NC(=O)[C@@H](CCCNC(=N)N)NC(=O)[C@@H](CCCNC(=N)N)NC1=O — MIC (1188718, multidrug-resistant): > 64 µg/mL
